Measured values pooled from the literature.
Each numbered part is a random draw from the data of one study; scales do not carry over between parts. Substitutions count along the parent as printed.

Sample 1 — method: DHFR PCA, deep sequencing; matrix: yeast; together with: (+)-ABA 0.032 µM; relative to: wild-type fitted maximum; direction: higher = stronger binding
Target: ABI1, truncated, D143A, DHFR fusion (Arabidopsis thaliana)
Notes: methotrexate growth selection, single substitutions
Starting sequence: PYL1, truncated, DHFR fusion (Arabidopsis thaliana); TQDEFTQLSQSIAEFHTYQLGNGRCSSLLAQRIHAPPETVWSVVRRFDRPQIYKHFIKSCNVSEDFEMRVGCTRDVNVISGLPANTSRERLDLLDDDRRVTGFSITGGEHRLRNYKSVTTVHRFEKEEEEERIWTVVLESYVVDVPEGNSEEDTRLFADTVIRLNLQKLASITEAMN; partner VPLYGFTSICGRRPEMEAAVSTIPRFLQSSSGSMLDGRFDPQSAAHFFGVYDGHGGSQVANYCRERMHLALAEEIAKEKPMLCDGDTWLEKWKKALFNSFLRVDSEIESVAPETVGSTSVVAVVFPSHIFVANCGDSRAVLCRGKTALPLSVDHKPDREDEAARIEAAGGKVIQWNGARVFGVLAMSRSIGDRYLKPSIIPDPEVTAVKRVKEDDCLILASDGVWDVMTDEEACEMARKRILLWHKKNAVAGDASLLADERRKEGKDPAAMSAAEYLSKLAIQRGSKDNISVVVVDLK
| Substitution | relative binding score [%] |
| --- | --- |
| E129K | 20.9 |
| D159W | -9.01 |
| R163L | -0.178 |
| G81P | 36.7 |
| H34G | 2.26 |
| E89L | -0.82 |
| S80G | 9.33 |
| K58G | 0.419 |
| Q31E | 1.84 |
| H16E | 3.8 |
| D153H | 1.7 |
| R163Q | 27.1 |
| L29N | -1.29 |
| V62Q | -8.26 |

Sample 2 — method: protein binding microarray; form: double-stranded DNA, one strand shown; matrix: in vitro; concentration: not given; relative to: not given; direction: higher = stronger binding
Target: Histone acetyltransferase KAT6A, winged helix 1, GST fusion (KAT6A, Homo sapiens, UniProt Q92794, residues 1-85)
Notes: 8-mer, flanks averaged, mean of 2 arrays, mostly near background
Target sequence (chain): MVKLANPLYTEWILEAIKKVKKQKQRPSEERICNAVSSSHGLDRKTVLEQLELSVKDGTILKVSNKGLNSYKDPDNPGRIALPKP
| Oligonucleotide | E-score |
| --- | --- |
| ATGCAGCG | 0.167 |
| AACAATGT | -0.192 |
| AACGTTGC | -0.0239 |
| ATGTGACA | -0.0275 |
| CCAAGCCC | -0.0179 |
| AGTAGGAC | -0.000985 |
| AATTGACC | 0.0037 |
| TCGGTTCA | -0.0158 |
| AAGGACGA | -0.183 |
| CACGTGGG | -0.228 |
| AACTACGG | 0.234 |
| GGGCACAA | -0.0384 |
| ACAATCAA | -0.18 |
| ACGCGGAG | 0.334 |
| AAGAGGCA | -0.192 |
| AGTACGAT | -0.12 |
| CGACCCGC | 0.395 |
| AGGTGGGG | -0.263 |
| ATCCAGAC | -0.025 |

Sample 3 — target: CCNB3, cyclin fold, Cln2 fusion (human); method: yeast growth competition, sequencing; matrix: yeast; notes: strong parent motif; relative to: not given; direction: higher = stronger binding
Starting sequence: E2F1 docking peptide (human); PPVKRRLDFETDH
| Substitution | normalised enrichment score |
| --- | --- |
| PPVKRWLDFETDH [R6W] | 0.363 |
| PPVKRRLHFETDH [D8H] | 1.9 |
| PPVKRRLDMETDH [F9M] | 0.411 |
| PPVKRRLDFSTDH [E10S] | 2.9 |
| PPVKRRLDFEHDH [T11H] | 2.56 |
| PPVKRRLIFETDH [D8I] | 2.68 |
| PPVKRRLDFLTDH [E10L] | 1.61 |
| PPVKRRLDNETDH [F9N] | -0.0244 |
| PPVKRRLDFERDH [T11R] | 2.43 |
| PPVNRRLDFETDH [K4N] | 2.11 |
| PGVKRRLDFETDH [P2G] | 2.34 |
| PPVKNRLDFETDH [R5N] | 0.239 |
| PPVKRILDFETDH [R6I] | 2.46 |

Sample 4 — method: universal PBM; form: double-stranded DNA, one strand shown; matrix: in vitro; concentration: 600 nM; direction: higher = stronger binding
Target: Sal-like protein 4, full length isoform A (SALL4, Homo sapiens, UniProt Q9UJQ4, residues 1-1053)
UniProt Q9UJQ4, sequence (whole entry, looked up): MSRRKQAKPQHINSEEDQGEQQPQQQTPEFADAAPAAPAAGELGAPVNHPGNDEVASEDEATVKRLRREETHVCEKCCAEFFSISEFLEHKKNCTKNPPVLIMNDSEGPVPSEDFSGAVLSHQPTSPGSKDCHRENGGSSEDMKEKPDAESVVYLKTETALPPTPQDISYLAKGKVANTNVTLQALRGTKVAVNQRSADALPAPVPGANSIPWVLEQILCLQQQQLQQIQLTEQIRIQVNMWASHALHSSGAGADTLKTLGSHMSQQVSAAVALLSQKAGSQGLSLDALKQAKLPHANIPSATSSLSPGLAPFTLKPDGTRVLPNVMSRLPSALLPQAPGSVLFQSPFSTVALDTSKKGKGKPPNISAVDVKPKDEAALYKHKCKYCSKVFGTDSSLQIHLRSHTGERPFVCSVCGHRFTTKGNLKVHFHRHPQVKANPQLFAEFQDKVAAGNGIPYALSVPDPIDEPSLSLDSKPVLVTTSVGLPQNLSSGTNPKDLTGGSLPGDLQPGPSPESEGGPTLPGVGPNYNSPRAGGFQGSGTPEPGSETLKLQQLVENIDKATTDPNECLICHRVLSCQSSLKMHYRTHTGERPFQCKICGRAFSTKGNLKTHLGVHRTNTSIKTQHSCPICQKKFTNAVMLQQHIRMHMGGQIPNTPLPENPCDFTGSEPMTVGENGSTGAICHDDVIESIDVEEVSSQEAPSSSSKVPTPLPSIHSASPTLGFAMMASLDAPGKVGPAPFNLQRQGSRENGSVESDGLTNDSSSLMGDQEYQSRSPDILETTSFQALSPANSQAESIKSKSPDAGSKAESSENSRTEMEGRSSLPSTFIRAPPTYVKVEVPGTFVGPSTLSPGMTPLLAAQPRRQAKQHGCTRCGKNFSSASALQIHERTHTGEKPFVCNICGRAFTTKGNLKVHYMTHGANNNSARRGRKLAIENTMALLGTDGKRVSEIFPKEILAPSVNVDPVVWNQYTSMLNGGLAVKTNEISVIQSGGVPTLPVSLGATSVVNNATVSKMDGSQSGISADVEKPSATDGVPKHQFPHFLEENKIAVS
Notes: 8-mer, flanks averaged, mean of replicates
| Oligonucleotide | E-score |
| --- | --- |
| CATTGAGG | 0.0577 |
| CAATTATC | 0.289 |
| ACATGTCT | 0.166 |
| ACATGTAG | 0.213 |
| AATCAGCG | -0.156 |
| GTCCCCCA | -0.278 |
| GGGTAACC | -0.243 |
| CTCCAATA | 0.222 |
| ACCAACAT | 0.21 |
| CCAAAACC | -0.000915 |
| ACCCCGTG | -0.322 |
| AGGTCCCC | -0.369 |
| CTGTAACA | 0.112 |
| CGTCACTC | -0.202 |
| GATGTGTA | 0.0878 |
| ACTAGCCT | -0.00704 |
| ACAATTAT | 0.416 |
| CCCGGACG | -0.395 |
| CTCGGTAA | -0.024 |
| GCGTACTA | -0.0503 |
| AAACTCGA | -0.0187 |
| ATCGGGGG | -0.17 |
| AACGAGGC | -0.219 |

Some of these lines once more (sample 2):
| Oligonucleotide | E-score |
| --- | --- |
| AACTACGG | 0.234 |
| AGTAGGAC | -0.000985 |
| AAGGACGA | -0.183 |
| CGACCCGC | 0.395 |
| CACGTGGG | -0.228 |
| AACAATGT | -0.192 |
| ACGCGGAG | 0.334 |
| ATGCAGCG | 0.167 |
| AACGTTGC | -0.0239 |
| AAGAGGCA | -0.192 |
